Published values of several laboratories.
Compare with care: the assays were run in different laboratories. Numbers after ± are the reported error.

CCCC[C@H](NC(=O)CNC(=O)CNC(=O)CN1CCN(CC(=O)O)CCN(CC(=O)O)CCN(CC(=O)O)CC1)C(=O)N[C@H]1CC(=O)NCCCC[C@@H](C(N)=O)NC(=O)[C@H](Cc2c[nH]c3ccccc23)NC(=O)[C@H](CCCNC(=N)N)NC(=O)[C@@H](Cc2ccccc2)NC(=O)[C@H](Cc2c[nH]cn2)NC1=O [lead-203 labelled]
tissue uptake (C57 mouse, brain; intravenous, 0.056 MBq, 4 h): 0.04 ± 0.01 %ID/g

CCCC[C@H](NC(=O)CNC(=O)CNC(=O)CN1CCN(CC(=O)O)CCN(CC(=O)O)CCN(CC(=O)O)CC1)C(=O)N[C@H]1CC(=O)NCCCC[C@@H](C(N)=O)NC(=O)[C@H](Cc2c[nH]c3ccccc23)NC(=O)[C@H](CCCNC(=N)N)NC(=O)[C@@H](Cc2ccccc2)NC(=O)[C@H](Cc2c[nH]cn2)NC1=O [copper-64 labelled]
tissue uptake (female C57 mouse, B16/F1 melanoma, skin; intravenous, 0.037 MBq, 2 h): 1.6 ± 0.35 %ID/g

CC(C)[C@H](NC(=O)[C@@H]1CCCN1C(=O)[C@H](CCCNC(=N)N)NC(=O)[C@H](CS)NC(=O)[C@H](Cc1c[nH]c2ccccc12)NC(=O)[C@H](CCCNC(=N)N)NC(=O)[C@@H](Cc1ccccc1)NC(=O)[C@H](Cc1c[nH]cn1)NC(=O)[C@H](CCC(=O)O)NC(=O)[C@H](CS)NC(=O)[C@H](CS)NC(=O)CNC(=O)[C@@H]1CC(=O)N[C@@H](CCCNC(=N)N)C(=O)NCC(=O)N[C@@H](CC(=O)O)C(=O)N[C@H](Cc2ccc(O)cc2)C(=O)N1)C(N)=O [technetium-99m labelled]
tissue uptake (C57 mouse, female, B16/F1 melanoma, stomach; intravenous, 0.037 MBq, 4 h): 2.94 ± 0.88 %ID/g

CCCC[C@H](NC(=O)CNC(=O)CNC(=O)CN1CCN(CC(=O)O)CCN(CC(=O)O)CC1)C(=O)N[C@H]1CC(=O)NCCCC[C@@H](C(N)=O)NC(=O)[C@H](Cc2c[nH]c3ccccc23)NC(=O)[C@H](CCCNC(=N)N)NC(=O)[C@@H](Cc2ccccc2)NC(=O)[C@H](Cc2c[nH]cn2)NC1=O [copper-64 labelled]
tissue uptake (C57 mouse female B16/F1 melanoma, intestines; intravenous, 0.037 MBq, 4 h): 1.19 ± 0.23 %ID

CN1C(=O)[C@@H](Cc2ccc(O)c(I)c2)NC(=O)CNC(=O)[C@H](Cc2ccc3ccccc3c2)NC(=O)[C@H](CCCNC(=N)N)NC(=O)[C@H]1CCCNC(=O)c1ccc(CNC(=O)CN2CCN(CC(=O)O)CCN(CC(=O)O)CCN(CC(=O)O)CC2)cc1 [lutetium-177 labelled]
tissue uptake (female CB-17 SCID mouse, Daudi xenograft, large intestine; intravenous, 6 h, CXCR4 blocking, together with: AMD3100 2 mg/kg coinjected): 0.43 ± 0.12 %ID/g

O=C([O-])CN1CCN(CC(=O)[O-])CCN(CC(=O)NCCc2ccc3c(c2)C2C=CCC2C(c2cc4c(cc2Br)OCO4)N3)CCN(CC(=O)[O-])CC1.[111In+3] (centres unmarked)
tissue uptake (mouse, Hec50 endometrial tumour, large intestine; 0.5 h post injection): 1.29 ± 0.28 %ID/g

CC(C)[C@H](NC(=O)[C@@H]1CCCN1C(=O)[C@H](CCCNC(=N)N)NC(=O)[C@H](CS)NC(=O)[C@H](Cc1c[nH]c2ccccc12)NC(=O)[C@H](CCCNC(=N)N)NC(=O)[C@@H](Cc1ccccc1)NC(=O)[C@H](Cc1c[nH]cn1)NC(=O)[C@H](CCC(=O)O)NC(=O)[C@H](CS)NC(=O)[C@H](CS)NC(=O)[C@@H]1CC(=O)N[C@@H](CCCNC(=N)N)C(=O)NCC(=O)N[C@@H](CC(=O)O)C(=O)N[C@H](Cc2ccc(O)cc2)C(=O)N1)C(N)=O [technetium-99m labelled]
tissue uptake (C57 mouse, female, B16/F1 melanoma, brain; intravenous, 0.037 MBq, 4 h): 0.04 ± 0.01 %ID/g

CN(C)c1ccc(-c2nc3ccc(OCCCCCN4CCN5CCN(CC4)CC(=O)[O][Al]([18F])[O]C(=O)C5)cc3s2)cc1
tissue uptake (ICR mouse, blood; intravenous, 30 min): 0.54 ± 0.12 %ID/g

A few entries again:
CCCC[C@H](NC(=O)CNC(=O)CNC(=O)CN1CCN(CC(=O)O)CCN(CC(=O)O)CCN(CC(=O)O)CC1)C(=O)N[C@H]1CC(=O)NCCCC[C@@H](C(N)=O)NC(=O)[C@H](Cc2c[nH]c3ccccc23)NC(=O)[C@H](CCCNC(=N)N)NC(=O)[C@@H](Cc2ccccc2)NC(=O)[C@H](Cc2c[nH]cn2)NC1=O [lead-203 labelled]
tissue uptake (C57 mouse, brain; intravenous, 0.056 MBq, 4 h): 0.04 ± 0.01 %ID/g
